Measured values from different studies.
Compare with care: the assays were run in different laboratories.
Organism: Pseudomonas aeruginosa

CC[C@H]1OC(=O)[C@H](C)[C@@H](OC(=O)Cc2cccc([N+](=O)[O-])c2)[C@H](C)[C@@H](O[C@@H]2O[C@H](C)C[C@H](N(C)C)[C@H]2O)[C@](C)(OC)C[C@@H](C)C(=O)[C@H](C)[C@@H](O)[C@]1(C)O
MIC (microbial growth; ATCC27853): > 32 µg/mL

CN[C@H](CC(C)C)C(=O)N[C@H]1C(=O)N[C@@H](CC(N)=O)C(=O)N[C@H]2C(=O)N[C@H]3C(=O)N[C@H](C(=O)N[C@H](C(=O)O)c4cc(O)cc(O)c4-c4cc3ccc4O)[C@H](O)c3ccc(c(Cl)c3)Oc3cc2cc(c3O[C@@H]2O[C@H](CO)[C@@H](O)[C@H](O)[C@H]2O[C@H]2C[C@](C)(N)[C@H](O)[C@H](C)O2)Oc2ccc(cc2Cl)[C@H]1O
MIC (microbial growth, broth dilution; PAO1): 64 µM

COc1c(C)c(OS(=O)(=O)c2ccccc2)c(C)c(O)c1C(=O)/C=C/c1ccccc1
MIC (microbial growth, broth dilution; ATCC27853): 5000 µg/mL

CCCCCCCCCCn1cc[n+](CCCCCCCCCCOc2cc(OCCCCCCCCCC[n+]3ccn(CCCCCCCCCC)c3)cc(OCCCCCCCCCC[n+]3ccn(CCCCCCCCCC)c3)c2)c1.[Br-].[Br-].[Br-]
MIC (PAO1): 125 µM

CCOc1c(NC(=O)c2ccc(NC(=O)c3ccc(NC(=O)[C@H](Cc4c[nH]nn4)NC(=O)c4ccc(NC(=O)/C(C)=C/c5ccc(O)cc5)cc4)cc3)c(OC)c2O)ccc(C(=O)O)c1O
MIC (broth microdilution; ciprofloxacin-sensitive): 1 µg/mL

COc1ccc2ccc(O)c(/C=N/[C@H]3CCCC[C@H]3/N=C/c3cccc(C)c3O)c2c1
MIC (microbial growth, broth dilution; clinical isolate): > 40 µM

CC[C@H]1OC(=O)[C@H](C)[C@@H](OC(=O)Cc2ccc(Cl)cc2)[C@H](C)[C@@H](O[C@@H]2O[C@H](C)C[C@H](N(C)C)[C@H]2O)[C@](C)(OC)C[C@@H](C)C(=O)[C@H](C)[C@@H](O)[C@]1(C)O
MIC (PAO397, five efflux pumps deleted): > 32 µg/mL

CCCCCCCCCCCC[N+](C)(C)CCCCCCCCOc1cc(OCCCCCCCC[N+](C)(C)CCCCCCCCCCCC)cc(OCCCCCCCC[N+](C)(C)CCCCCCCCCCCC)c1.[Br-].[Br-].[Br-]
MIC (PAO1): 125 µM

O=C(O)c1cn(C2CC2)c2cc(N3CCNCC3)c(F)cc2c1=O
MIC (microbial growth, broth dilution): < 0.008 µg/mL

C=CCO/N=C(\C(=O)N[C@@H]1C(=O)N(OS(=O)(=O)O)C1(C)C)c1csc(N)n1
MIC (agar dilution; PAO1): 16 µg/mL

COc1ccc(/C=N/[C@@H]2CCCC[C@@H]2/N=C/c2c(O)ccc3ccc(OC)cc23)c(O)c1
MIC (microbial growth, broth dilution; clinical isolate): > 40 µM

CC[C@H]1OC(=O)[C@H](C)[C@@H](OC(=O)Cc2c(F)cccc2F)[C@H](C)[C@@H](O[C@@H]2O[C@H](C)C[C@H](N(C)C)[C@H]2O)[C@](C)(OC)C[C@@H](C)C(=O)[C@H](C)[C@@H](O)[C@]1(C)O
MIC (PAO397, five efflux pumps deleted): > 32 µg/mL

CCn1cc(C(=O)O)c(=O)c2cc(F)c(N3CCNCC3)cc21
MIC (microbial growth, broth dilution): 0.016 µg/mL

COc1c(NC(=O)c2ccc(NC(=O)c3ccc(NC(=O)[C@H](CC#N)NC(=O)c4ccc(NC(=O)/C(C)=C/c5ccc(O)cc5)cc4)cc3)c(OC)c2O)ccc(C(=O)O)c1O
MIC (microbial growth; PA14): 0.25 µg/mL

COc1c(NC(=O)c2ccc(NC(=O)c3ccc(NC(=O)[C@H](Cc4c[nH]nn4)NC(=O)c4ccc(NC(=O)/C(C)=C/c5ccc(O)cc5)cc4)cc3)cc2O)ccc(C(=O)O)c1O
MIC (broth microdilution; ciprofloxacin-sensitive): 32 µg/mL

CN[C@H](CC(C)C)C(=O)N[C@H]1C(=O)N[C@@H](CC(N)=O)C(=O)N[C@H]2C(=O)N[C@H]3C(=O)N[C@H](C(=O)N[C@H](C(=O)NCc4cn(CC(=O)N[C@H](C(=O)N[C@@H](CCN)C(=O)N[C@H]5CCNC(=O)[C@H]([C@@H](C)O)NC(=O)[C@H](CCN)NC(=O)[C@H](CCN)NC(=O)[C@H](CC(C)C)NC(=O)[C@@H](CC(C)C)NC(=O)[C@H](CCN)NC5=O)[C@@H](C)O)nn4)c4cc(O)cc(O)c4-c4cc3ccc4O)[C@H](O)c3ccc(c(Cl)c3)Oc3cc2cc(c3O[C@@H]2O[C@H](CO)[C@@H](O)[C@H](O)[C@H]2O[C@H]2C[C@](C)(N)[C@H](O)[C@H](C)O2)Oc2ccc(cc2Cl)[C@H]1O
MIC (broth microdilution; ATCC 10145, cation-adjusted Mueller-Hinton broth; 18 to 20 h, 37 °C, 0.002% polysorbate 80): > 128 µg/mL

CCCCCCCCCC[N+](C)(C)CCCCCCCCCCOc1cc(OCCCCCCCCCC[N+](C)(C)CCCCCCCCCC)cc(OCCCCCCCCCC[N+](C)(C)CCCCCCCCCC)c1.[Br-].[Br-].[Br-]
MIC (PAO1): 125 µM

O=C(Oc1cccccc1=O)c1cccc(Cl)c1
MIC (broth microdilution; ATCC 27853, CAMHB; 16 to 24 h, ≥80% growth inhibition): > 71.4 µM

CCCCCCCCCc1nc2cc(Cl)ccc2c(=O)n1CCN
MIC (planktonic growth; PAO1): > 100 µM

CC[C@H]1OC(=O)[C@H](C)[C@@H](OC(=O)Cc2cccc(Cl)c2)[C@H](C)[C@@H](O[C@@H]2O[C@H](C)C[C@H](N(C)C)[C@H]2O)[C@](C)(OC)C[C@@H](C)C(=O)[C@H](C)[C@@H](O)[C@]1(C)O
MIC (microbial growth; ATCC27853): > 32 µg/mL

CC1(C)C(NC(=O)C(=NOC2(C(=O)O)CCC2)c2csc(N)n2)C(=O)N1OS(=O)(=O)O (stereo not drawn)
MIC (agar dilution; PAO1): 1 µg/mL

CCOc1c(NC(=O)c2ccc(NC(=O)[C@H](Cc3c[nH]nn3)NC(=O)c3ccc(NC(=O)/C(C)=C/c4ccc(O)cc4)cc3)cc2)ccc(C(=O)Nc2ccc(C(=O)O)c(O)c2OC)c1O
MIC (broth microdilution; ciprofloxacin-sensitive): 64 µg/mL

C#CCO/N=C(\C(=O)N[C@@H]1C(=O)N(OS(=O)(=O)O)C1(C)C)c1csc(N)n1
MIC (agar dilution; ATCC 27853): > 64 µg/mL

CC(C)C[C@@H]1NC(=O)[C@@H](CC(C)C)NC(=O)[C@H](CCN)NC(=O)[C@@H](NC(=O)[C@H](CCN)NC(=O)[C@@H](N)[C@@H](C)O)CCNC(=O)[C@H]([C@@H](C)O)NC(=O)[C@H](CCN)NC(=O)[C@H](CCN)NC1=O
MIC (broth microdilution; ATCC 17978, cation-adjusted Mueller-Hinton broth): > 138 µM

Excerpt of the above:
CCn1cc(C(=O)O)c(=O)c2cc(F)c(N3CCNCC3)cc21
MIC (microbial growth, broth dilution): 0.016 µg/mL

COc1c(NC(=O)c2ccc(NC(=O)c3ccc(NC(=O)[C@H](CC#N)NC(=O)c4ccc(NC(=O)/C(C)=C/c5ccc(O)cc5)cc4)cc3)c(OC)c2O)ccc(C(=O)O)c1O
MIC (microbial growth; PA14): 0.25 µg/mL

COc1c(NC(=O)c2ccc(NC(=O)c3ccc(NC(=O)[C@H](Cc4c[nH]nn4)NC(=O)c4ccc(NC(=O)/C(C)=C/c5ccc(O)cc5)cc4)cc3)cc2O)ccc(C(=O)O)c1O
MIC (broth microdilution; ciprofloxacin-sensitive): 32 µg/mL
